{"data": "Measured values of several laboratories", "note": "A part holds a random share of what one study measured.", "sequence of UniProt Q9NRM7 (whole entry, looked up)": "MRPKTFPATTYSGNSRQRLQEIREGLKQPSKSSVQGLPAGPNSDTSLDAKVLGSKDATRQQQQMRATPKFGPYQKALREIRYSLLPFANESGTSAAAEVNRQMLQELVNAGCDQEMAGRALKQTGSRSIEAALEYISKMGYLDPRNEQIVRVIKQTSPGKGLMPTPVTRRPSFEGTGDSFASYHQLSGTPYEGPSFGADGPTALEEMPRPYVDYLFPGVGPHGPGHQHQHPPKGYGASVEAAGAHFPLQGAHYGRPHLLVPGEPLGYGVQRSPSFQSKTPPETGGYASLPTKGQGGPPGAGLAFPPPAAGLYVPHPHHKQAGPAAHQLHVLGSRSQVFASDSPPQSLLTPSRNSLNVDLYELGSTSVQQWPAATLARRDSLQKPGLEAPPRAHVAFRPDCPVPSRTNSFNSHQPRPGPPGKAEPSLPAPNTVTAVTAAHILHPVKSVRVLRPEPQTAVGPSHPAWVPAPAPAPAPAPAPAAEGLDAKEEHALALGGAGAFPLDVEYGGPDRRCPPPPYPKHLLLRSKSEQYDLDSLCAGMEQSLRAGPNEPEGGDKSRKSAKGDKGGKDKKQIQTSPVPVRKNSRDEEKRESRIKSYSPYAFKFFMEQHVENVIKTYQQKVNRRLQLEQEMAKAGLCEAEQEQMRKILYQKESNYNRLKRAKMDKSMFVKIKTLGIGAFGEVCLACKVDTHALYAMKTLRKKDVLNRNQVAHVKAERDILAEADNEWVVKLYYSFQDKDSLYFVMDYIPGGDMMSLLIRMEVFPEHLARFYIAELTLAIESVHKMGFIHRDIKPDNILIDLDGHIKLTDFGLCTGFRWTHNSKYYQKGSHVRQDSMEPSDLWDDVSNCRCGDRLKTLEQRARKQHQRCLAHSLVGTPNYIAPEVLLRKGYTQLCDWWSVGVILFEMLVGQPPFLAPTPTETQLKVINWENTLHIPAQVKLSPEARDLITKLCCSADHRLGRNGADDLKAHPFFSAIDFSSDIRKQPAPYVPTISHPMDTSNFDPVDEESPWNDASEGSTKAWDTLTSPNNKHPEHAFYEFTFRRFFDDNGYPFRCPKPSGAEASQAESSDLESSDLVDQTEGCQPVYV", "sequence of UniProt Q9Y2H1 (whole entry, looked up)": "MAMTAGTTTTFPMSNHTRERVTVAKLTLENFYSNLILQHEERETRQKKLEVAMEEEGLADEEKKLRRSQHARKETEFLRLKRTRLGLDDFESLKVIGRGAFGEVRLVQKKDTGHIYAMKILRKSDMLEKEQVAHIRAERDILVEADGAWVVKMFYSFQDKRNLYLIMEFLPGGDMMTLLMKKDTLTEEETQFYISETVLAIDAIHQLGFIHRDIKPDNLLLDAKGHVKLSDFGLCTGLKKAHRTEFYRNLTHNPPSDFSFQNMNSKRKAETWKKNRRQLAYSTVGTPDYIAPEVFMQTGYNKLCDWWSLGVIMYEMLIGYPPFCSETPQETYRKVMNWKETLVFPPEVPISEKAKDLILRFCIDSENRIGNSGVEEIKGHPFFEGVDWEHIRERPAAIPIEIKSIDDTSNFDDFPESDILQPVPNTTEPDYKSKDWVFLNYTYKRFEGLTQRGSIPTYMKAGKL", "sequence of UniProt P08069 (whole entry, looked up)": "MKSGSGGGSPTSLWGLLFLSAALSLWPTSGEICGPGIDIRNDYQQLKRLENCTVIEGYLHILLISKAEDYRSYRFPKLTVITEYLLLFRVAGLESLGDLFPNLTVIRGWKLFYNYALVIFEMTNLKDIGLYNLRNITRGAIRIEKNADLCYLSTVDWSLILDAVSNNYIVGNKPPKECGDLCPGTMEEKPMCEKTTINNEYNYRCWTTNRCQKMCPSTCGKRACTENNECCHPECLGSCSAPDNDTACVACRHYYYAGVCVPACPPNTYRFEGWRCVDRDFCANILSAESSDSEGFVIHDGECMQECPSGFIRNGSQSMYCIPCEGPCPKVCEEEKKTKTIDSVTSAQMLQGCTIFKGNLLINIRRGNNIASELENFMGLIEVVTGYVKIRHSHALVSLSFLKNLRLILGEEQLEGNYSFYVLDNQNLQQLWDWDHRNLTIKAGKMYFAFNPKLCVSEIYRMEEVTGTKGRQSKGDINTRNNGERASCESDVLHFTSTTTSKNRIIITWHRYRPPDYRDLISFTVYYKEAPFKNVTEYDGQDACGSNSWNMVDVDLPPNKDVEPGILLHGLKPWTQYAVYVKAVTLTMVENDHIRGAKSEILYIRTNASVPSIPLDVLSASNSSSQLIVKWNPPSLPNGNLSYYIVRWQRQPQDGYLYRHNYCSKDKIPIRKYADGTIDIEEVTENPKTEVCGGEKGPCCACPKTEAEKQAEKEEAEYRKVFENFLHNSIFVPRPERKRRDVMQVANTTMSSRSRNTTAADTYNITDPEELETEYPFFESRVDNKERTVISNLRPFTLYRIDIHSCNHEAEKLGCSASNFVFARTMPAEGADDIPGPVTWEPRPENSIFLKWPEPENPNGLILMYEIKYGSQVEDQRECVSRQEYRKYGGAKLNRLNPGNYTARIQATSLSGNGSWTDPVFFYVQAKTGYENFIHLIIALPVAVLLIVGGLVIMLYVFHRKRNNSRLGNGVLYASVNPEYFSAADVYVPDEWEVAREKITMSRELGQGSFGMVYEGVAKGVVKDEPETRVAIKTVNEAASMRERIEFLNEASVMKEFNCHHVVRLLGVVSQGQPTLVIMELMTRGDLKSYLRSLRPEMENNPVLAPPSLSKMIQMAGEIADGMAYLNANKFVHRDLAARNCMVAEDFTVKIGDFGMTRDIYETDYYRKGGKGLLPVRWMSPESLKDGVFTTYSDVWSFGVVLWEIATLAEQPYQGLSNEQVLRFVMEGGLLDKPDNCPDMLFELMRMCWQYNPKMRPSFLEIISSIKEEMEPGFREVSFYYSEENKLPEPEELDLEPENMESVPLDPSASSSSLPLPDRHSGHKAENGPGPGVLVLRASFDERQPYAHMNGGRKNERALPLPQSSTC", "sequence of UniProt P42336 (whole entry, unmodified, looked up)": "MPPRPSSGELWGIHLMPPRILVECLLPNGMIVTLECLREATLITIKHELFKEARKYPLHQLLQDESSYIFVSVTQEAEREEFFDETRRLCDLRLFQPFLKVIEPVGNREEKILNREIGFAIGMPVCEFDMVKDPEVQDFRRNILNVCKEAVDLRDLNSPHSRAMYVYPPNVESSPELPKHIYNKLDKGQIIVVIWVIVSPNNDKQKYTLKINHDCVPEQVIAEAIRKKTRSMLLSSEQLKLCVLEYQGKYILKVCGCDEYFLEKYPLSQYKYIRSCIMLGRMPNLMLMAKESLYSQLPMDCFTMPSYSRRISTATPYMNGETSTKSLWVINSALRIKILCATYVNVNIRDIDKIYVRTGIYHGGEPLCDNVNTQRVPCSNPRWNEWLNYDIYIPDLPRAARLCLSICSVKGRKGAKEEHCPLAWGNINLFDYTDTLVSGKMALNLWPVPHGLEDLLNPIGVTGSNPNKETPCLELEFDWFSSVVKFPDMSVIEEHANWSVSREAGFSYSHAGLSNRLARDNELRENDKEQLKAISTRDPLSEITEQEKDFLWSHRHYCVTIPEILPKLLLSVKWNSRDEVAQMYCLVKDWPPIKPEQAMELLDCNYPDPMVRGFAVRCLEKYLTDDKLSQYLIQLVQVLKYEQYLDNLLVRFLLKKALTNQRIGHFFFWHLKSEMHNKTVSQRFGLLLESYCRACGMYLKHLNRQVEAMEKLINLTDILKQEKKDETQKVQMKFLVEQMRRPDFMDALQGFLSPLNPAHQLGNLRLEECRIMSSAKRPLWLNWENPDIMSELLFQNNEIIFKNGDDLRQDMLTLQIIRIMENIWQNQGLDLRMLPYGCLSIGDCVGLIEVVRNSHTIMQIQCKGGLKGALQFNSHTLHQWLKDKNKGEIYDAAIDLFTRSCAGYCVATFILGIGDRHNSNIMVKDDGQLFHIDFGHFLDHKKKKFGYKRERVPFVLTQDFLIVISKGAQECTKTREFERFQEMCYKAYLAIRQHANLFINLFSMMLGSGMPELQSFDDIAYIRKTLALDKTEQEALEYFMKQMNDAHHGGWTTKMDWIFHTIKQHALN", "sequence of UniProt Q8N5S9 (whole entry, looked up)": "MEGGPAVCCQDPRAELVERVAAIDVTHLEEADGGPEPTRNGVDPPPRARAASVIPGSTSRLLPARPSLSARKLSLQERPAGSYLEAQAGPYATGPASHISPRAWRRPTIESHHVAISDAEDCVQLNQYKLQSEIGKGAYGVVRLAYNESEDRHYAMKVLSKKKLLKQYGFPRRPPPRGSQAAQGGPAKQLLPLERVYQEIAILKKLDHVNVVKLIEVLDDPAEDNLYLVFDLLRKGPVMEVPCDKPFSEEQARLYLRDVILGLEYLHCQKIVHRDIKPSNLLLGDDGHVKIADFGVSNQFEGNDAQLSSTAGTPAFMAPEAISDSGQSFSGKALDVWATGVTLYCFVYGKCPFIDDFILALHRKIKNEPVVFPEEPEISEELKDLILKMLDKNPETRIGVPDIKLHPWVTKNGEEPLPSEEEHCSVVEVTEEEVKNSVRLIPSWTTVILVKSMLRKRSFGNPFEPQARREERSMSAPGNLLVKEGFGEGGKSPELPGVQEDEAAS", "sequence of UniProt P49674 (whole entry, looked up)": "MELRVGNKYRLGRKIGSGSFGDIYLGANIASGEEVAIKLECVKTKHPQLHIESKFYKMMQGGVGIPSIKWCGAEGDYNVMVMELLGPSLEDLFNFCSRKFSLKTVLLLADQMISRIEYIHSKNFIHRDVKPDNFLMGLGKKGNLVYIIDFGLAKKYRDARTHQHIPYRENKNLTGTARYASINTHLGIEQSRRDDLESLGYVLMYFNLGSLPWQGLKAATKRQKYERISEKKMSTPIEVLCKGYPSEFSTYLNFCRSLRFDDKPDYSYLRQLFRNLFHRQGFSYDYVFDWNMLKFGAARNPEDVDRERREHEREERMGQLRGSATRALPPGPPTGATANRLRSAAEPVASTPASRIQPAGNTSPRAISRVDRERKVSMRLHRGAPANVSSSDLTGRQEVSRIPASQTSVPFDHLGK"}
{"data": "Set 1", "Compound": "CCCNC(=O)Nc1ccc(Oc2ncnc3cc(OC)c(OC)cc23)cc1Cl", "read-out": "enzyme activity", "action": "inhibitor", "tested at": "0.5 µM", "relative to": "control"}
{"target": "Serine/threonine-protein kinase PAK 1 (PAK1, Homo sapiens, UniProt Q13153)", "remaining activity [%]": 93.8}
{"target": "Insulin-like growth factor 1 receptor (IGF1R, Homo sapiens, UniProt P08069)", "remaining activity [%]": 77}
{"target": "Vascular endothelial growth factor receptor 1 (FLT1, Homo sapiens, UniProt P17948)", "remaining activity [%]": 65.2}
{"target": "Calcium/calmodulin-dependent protein kinase kinase 1 (CAMKK1, Homo sapiens, UniProt Q8N5S9)", "remaining activity [%]": 93.1}
{"target": "Casein kinase I isoform epsilon (CSNK1E, Homo sapiens, UniProt P49674)", "remaining activity [%]": 78.5}
{"target": "Serine/threonine-protein kinase PAK 6 (PAK6, Homo sapiens, UniProt Q9NQU5)", "remaining activity [%]": 106}
{"data": "Set 2", "species": "human", "matrix": "microsomes or S9", "tested at": "2 µM", "time": "0.5 h"}
{"Compound": "COC(=O)NC12CCCC(C1)c1ccc(=O)[nH]c1C2 (stereo not shown)", "remaining compound [%]": "> 99.9"}
{"Compound": "CCOC(=O)c1cc(CC)sc1NC(=O)COC", "remaining compound [%]": 0.201}
{"Compound": "CCc1ccc(N2C(=O)CN(S(C)(=O)=O)CC2(C)C(=O)NCc2ccc(F)cc2)cc1 (stereo not shown)", "remaining compound [%]": 19.3}
{"Compound": "CC1CCN([S+]([O-])C23CC4CC(CC(C4)C2)C3)CC1 (stereo not shown)", "remaining compound [%]": 9.52}
{"Compound": "CCC1=NOC(c2nc3sc(CC)cc3c(=O)[nH]2)C1 (stereo not shown)", "remaining compound [%]": 48.8}
{"Compound": "CCOC(=O)c1c(-c2ccccc2)n(C#Cc2ccccc2F)c2ccccc12", "remaining compound [%]": 12.9}
{"Compound": "COc1cc(OC)c2c(=O)cc(-c3ccccc3)oc2c1", "remaining compound [%]": 16}
{"data": "Set 3", "SMILES": "CCCOc1ccc([C@@H]2[C@@H](C(=O)O)[C@H](c3ccc4c(c3)OCO4)CN2CC(=O)Nc2c(CC)cccc2CC)cc1", "read-out": "cell-free assay", "method": "competition with immobilised ligand", "tested at": "1 µM"}
{"target": "Serine/threonine-protein kinase Nek10 (NEK10, Homo sapiens, UniProt Q6ZWH5)", "remaining binding": "96%"}
{"target": "Tyrosine-protein kinase JAK3, JH1 (JAK3, Homo sapiens, UniProt P52333)", "remaining binding": "73%"}
{"target": "Eukaryotic translation initiation factor 2-alpha kinase 1 (EIF2AK1, Homo sapiens, UniProt Q9BQI3)", "remaining binding": "86%"}
{"target": "Mitogen-activated protein kinase kinase kinase kinase 1 (MAP4K1, Homo sapiens, UniProt Q92918)", "remaining binding": "92%"}
{"target": "Tyrosine-protein kinase ABL1, non-phosphorylated (ABL1, Homo sapiens, UniProt P00519, H396P)", "remaining binding": "89%"}
{"target": "cGMP-dependent protein kinase 2 (PRKG2, Homo sapiens, UniProt Q13237)", "remaining binding": "83%"}
{"target": "Receptor-type tyrosine-protein kinase FLT3 (FLT3, Homo sapiens, UniProt P36888, K663Q)", "remaining binding": "100%"}
{"target": "Phosphatidylinositol 4,5-bisphosphate 3-kinase catalytic subunit alpha isoform (PIK3CA, Homo sapiens, UniProt P42336, H1047Y)", "remaining binding": "100%"}
{"target": "Tyrosine-protein kinase ITK/TSK (ITK, Homo sapiens, UniProt Q08881)", "remaining binding": "100%"}
{"target": "Serine/threonine-protein kinase LATS2 (LATS2, Homo sapiens, UniProt Q9NRM7)", "remaining binding": "100%"}
{"target": "Phosphatidylinositol 5-phosphate 4-kinase type-2 gamma (PIP4K2C, Homo sapiens, UniProt Q8TBX8)", "remaining binding": "94%"}
{"target": "Serine/threonine-protein kinase RIO2 (RIOK2, Homo sapiens, UniProt Q9BVS4)", "remaining binding": "98%"}
{"target": "Serine/threonine-protein kinase 38-like (STK38L, Homo sapiens, UniProt Q9Y2H1)", "remaining binding": "100%"}
{"target": "BMP-2-inducible protein kinase (BMP2K, Homo sapiens, UniProt Q9NSY1)", "remaining binding": "92%"}
{"data": "Mixed results"}
{"SMILES": "O=C1CCC(N2Cc3cc(C4CCN(Cc5ccccc5)CC4)ccc3C2=O)C(=O)N1 (stereo not shown)", "target": "Voltage-gated inwardly rectifying potassium channel KCNH2 (KCNH2, Homo sapiens, UniProt Q12809)", "test": "potassium current, inhibitor, manual patch clamp", "system": "HEK293 stably transfected with hERG", "setting": "measured concentrations", "measurement": "IC50", "result": "8.96 µM"}
{"note": "Some of these lines once more (set 3):"}
{"target": "Tyrosine-protein kinase ITK/TSK (ITK, Homo sapiens, UniProt Q08881)", "remaining binding": "100%"}
{"target": "Serine/threonine-protein kinase LATS2 (LATS2, Homo sapiens, UniProt Q9NRM7)", "remaining binding": "100%"}
